Measured values of several laboratories.
Compare with care: the assays were run in different laboratories. Values joined by “and” are separate records of one study, mostly repeats; a detail may differ. ± marks the error that the study gave.

SMILES | tested on | assay | system | setting | how to read | quantity | value
Cn1cncc1C1=CN(c2ncnc3[nH]cnc23)CCS1 | SNB-75 |  |  | CNS cancer |  | CC50 | 141 µM
COc1ccc2c(c1)[nH]c1c(C)nccc12 | DU-145 | bisulfite pyrosequencing, measured: RASSF1A promoter CpG site 10 |  | concentration not given | baseline: vehicle | methylation reduction | 3.44%
CN1CCN(C2(CNC3CCN(c4cccc(-c5cc6cc(F)ccc6[nH]5)c4)CC3)CCC2)CC1 | NCI-H226 |  |  |  |  | GI50 | 2.05 µM
CC(=O)O[C@H]1CC[C@@]2(C)[C@H](CC[C@@H]3[C@@H]2CC[C@]2(C)[C@@H](C4=CC(=O)OC4)[C@@H](OC(C)=O)C[C@]32O)C1 | iPSC-derived cardiomyocytes | concentration-response curve, measured: MyBP-C protein level |  | 24 h |  | EC50 | 4.7 µM
Nc1ncnc2c1ncn2[C@@H]1O[C@@H]2COP(=O)(O)O[C@H]3[C@@H](O)[C@H](n4cnc5c(=O)[nH]cnc54)O[C@@H]3COP(=O)(O)O[C@H]2[C@H]1O | HFF-1 | RNA sequencing Reactome analysis, measured: Reactome R-HSA-5663220 |  | with: West Nile virus infection | baseline: West Nile virus infected cells, upregulated pathway | pathway fold enrichment | 3.61
CC(C)[C@H](N)C(=O)N1CCC[C@H]1B(O)O | Ker-CT keratinocytes, NLRP1 knockout | inducer, ELISA |  | concentration not given, compound alone |  | IL-1beta release | 6.71 pg/mL and 0.479 pg/mL and 0 pg/mL
Nc1ncc(-c2nc(N3CCOCC3)nc(N3CCOCC3)n2)c(C(F)F)n1 | 786-O | cell growth |  | 72 h |  | GI50 | 0.34 µM
COC(=O)/C(C)=C\C[C@@]12OC(C)(C)[C@@H]3C[C@@H](C=C4C(=O)c5c(O)c6c(c(CC=C(C)C)c5O[C@]431)O[C@](C)(CCC=C(C)C)C=C6)C2=O | iPSC-derived cardiomyocytes | concentration-response fit |  |  | baseline: vehicle | fitted bottom MyBP-C/MYH ratio | 0%
CC(c1ccccc1)(c1ccc(O)cc1)c1ccc(O)cc1 | HepG2 spheroids | Hoechst flow cytometry |  | 1 µM, 24 h |  | S phase cells | 9.53 ± 1.12%
Cc1nn(-c2nc3c(F)cc(F)cc3s2)c(O)c1C(c1ccc(C(F)(F)F)cc1)c1c(C)nn(-c2nc3c(F)cc(F)cc3s2)c1O | RAW-ISG | CCK-8 |  | 25 µM |  | viability | 103% and 102% and 82.1% and 85.7% and 88.9%
Cn1nccc1Nc1nccc(-c2cc3c(s2)C(C)(C)N(CCN2CCOCC2)C3=O)n1 | HCT116 | IncuCyte |  | concentration not given, 24 (unit not given) |  | PI-positive cells | 6.83 count and 7.92 count and 8.92 count
CCOC(=O)Nc1ccc(NCc2ccc(F)cc2)nc1N | Plasmodium falciparum |  | D10 |  |  | IC50 | 6.31 µM
COc1c(C)c2c(c(O)c1C/C=C(\C)CCC(=O)O)C(=O)OC2 | Placenta cancer cell lines | cell proliferation |  |  |  | IC50 | 0.24 µM
COC(=O)C1CCN(C(=O)c2ccc(N(C)Cc3cnc4nc(N)nc(N)c4n3)cc2)CC1 | 786-O | high-content imaging, measured: MitoTracker Red uptake |  | 10 µM |  | mitochondrial toxicity | -6.44 ± 4.96%
O=S(=O)(c1ccc(O)cc1)c1ccc(O)cc1 | HepG2 spheroids | planimetry |  | 2.5 µM, 0 to 24 h | baseline: mean area of 72 h spheroids | spheroid area increase | 181%
Oc1cc(Cl)ccc1Oc1ccc(Cl)cc1Cl | HepG2 | extracellular flux, measured: oxygen consumption rate |  | 1 h, distribution mode 1 |  | point of departure | 1.38 µM
C[C@@H]1O[C@@H](O[C@H]2C[C@@H](O)[C@]3(CO)[C@H]4[C@H](O)C[C@]5(C)[C@@H](C6=CC(=O)OC6)CC[C@]5(O)[C@@H]4CC[C@]3(O)C2)[C@H](O)[C@H](O)[C@H]1O | iPSC-derived cardiomyocytes | concentration-response fit |  |  | baseline: vehicle | fitted bottom MyBP-C/MYH ratio | 37.6%
CN1CCc2cc3c(cc2[C@H]1[C@@H]1OC(=O)c2c1ccc1c2OCO1)OCO3 | glutamatergic hiPSC-derived neurons | multi-electrode array |  | concentration not given, 2 h, highest concentration tested | baseline: vehicle | network bursting | 1.9 fold
Oc1ccc(C(c2ccc(O)cc2)(C(F)(F)F)C(F)(F)F)cc1 | HepG2 spheroids | Hoechst flow cytometry |  | 0.01 µM, 96 h |  | G2 phase cells | 20.2 ± 2.31%

SMILES | tested on | assay | system | setting | how to read | quantity | value
N.N.[Cl][Pt][Cl] | Jurkat E6-1 | cell proliferation, CellTiter-Glo |  | 10 µM, 72 h |  | inhibition | 100%
C[C@H]1CCC/C=C/[C@@H]2C[C@H](O)C[C@H]2[C@H](O)/C=C/C(=O)O1 | BT-12 | cell viability, MTT |  | 10 µM, 72 h |  | inhibition | 95.9%
CC(C)CN(C[C@@H](O)[C@H](Cc1ccccc1)NC(=O)O[C@H]1CO[C@H]2OCC[C@H]21)S(=O)(=O)c1ccc(N)cc1 | ΔE-expressing cells | ΔE mislocalization, high-content imaging |  |  |  | maximal efficacy | inactive
COc1cc(CCC[P+](c2ccccc2)(c2ccccc2)c2ccccc2)c(OC)c2c1OCO2.[I-] | A498 | SRB |  |  |  | LC50 | -4.78 log M
Cn1nccc1Nc1nccc(-c2ccn([C@H](CO)c3ccc(Cl)c(F)c3)c(=O)c2)n1 | HCT116 | IncuCyte |  | concentration not given, 24 (unit not given) |  | PI-positive cells | 5.42 count and 4.67 count and 6.58 count
COc1ccc([C@H]2c3[nH]c4ccc(Cl)cc4c3CCN2C(=O)Oc2ccc(Cl)cc2)cc1 | human dermal fibroblasts with PBMC | cytokine secretion, measured: sIL-6 |  | 0.001 µM, 48 h |  | inhibition | 33%
CO[C@H]1/C=C\C=C(/C)C(=O)NC2=CC(=O)C(NCCN(C)C)=C(C[C@@H](C)C[C@H](OC)[C@H](O)[C@@H](C)/C=C(\C)[C@@H]1OC(N)=O)C2=O | iPSC-derived cardiomyocytes | concentration-response curve, measured: MyBP-C/MYH ratio |  | 24 h |  | EC50 | 1.1 µM
CN1CC[C@]2(C)c3cc(OC(=O)Nc4ccccc4)ccc3N(C)[C@H]12 | human PBMC | ELISA, measured: IL-1β |  | 0.1 to 10 µM, with: PHA 20 µg/mL |  | inhibition | ~50%
CC[C@H]1CN2CCc3cc(OC)c(OC)cc3[C@@H]2C[C@@H]1C[C@H]1NCCc2cc(OC)c(OC)cc21.Cl.Cl | C127 LDR GFP reporter cells | silenced GFP reporter induction, activator, high-content imaging |  | retest, two-run mean |  | efficacy | 51%
C/C=C(/C)C(=O)O[C@H]1C(C)=C2[C@H]([C@@H]1OC(=O)CCCCCCC)[C@@](C)(OC(C)=O)C[C@H](OC(=O)CCC)[C@@]1(O)[C@H]2OC(=O)[C@@]1(C)O | HEK-293T | RNA-seq GSEA, measured: Hallmark apical surface |  | 500 nM, 6 h | direction not given | normalized enrichment score | -1.3
CC(C)N1CCC(NC2CCN(c3cccc(-c4cc5cc(F)ccc5[nH]4)c3)CC2)CC1 | A498 |  |  |  |  | GI50 | 1.47 µM
Cc1c(O)c(O)cc2c1CC=C1[C@@]2(C)CC[C@@]2(C)[C@@H]3C[C@](C)(C(=O)O)CC[C@]3(C)CC[C@]12C | iPSC-derived cardiomyocytes | concentration-response fit |  | concentration not given | baseline: vehicle | fitted bottom MyBP-C level | 0%
O=S(=O)(Nc1ccc(-c2n[nH]c(=S)o2)cc1)c1ccc(C(F)(F)F)cc1 | MCF7 transfected with human P2X7R |  |  | 10 µM, with: Bz-ATP 100 µM | baseline: Bz-ATP alone | inhibition of proliferation | 11%
C/C=C(/C)C(=O)O[C@H]1C(C)=C2C([C@@H]1OC(=O)CCCCCCC)[C@@](C)(OC(C)=O)C[C@H](OC(=O)CCC)[C@@]1(O)[C@H]2OC(=O)[C@@]1(C)O (some centres unmarked) | C127 LDR GFP reporter cells | silenced GFP reporter induction, activator, high-content imaging |  | retest, two-run mean |  | efficacy | 96%
CCN(CC)c1ccc(C=NNC(=O)CSc2nc3ccccc3c(=O)n2Cc2ccc(S(N)(=O)=O)cc2)c(O)c1 | SK-OV-3 | NCI five-dose screen |  |  |  | CC50 | > 100 µM
Cn1cc2cc(C(F)(F)c3nnc4ccc(-c5cnn(C6CC6)c5)nn34)c(F)cc2n1 | MKN-45 | annexin V/PI flow cytometry |  | 200 nM, 48 h |  | late apoptotic cells | 44% and 38.1% and 45.5%
CN(C)CC[C@@H](c1ccc(Cl)cc1)c1ccccn1 | Plasmodium falciparum |  | Dd2 |  |  | IC50 | 6.31 µM
COc1c(CCC[P+](c2ccccc2)(c2ccccc2)c2ccccc2)cc2c(c1OC)OCO2.[I-] | IGROV-1 | SRB |  |  |  | LC50 | -4.09 log M
COc1cc([C@@H]2c3cc4c(cc3[C@@H](O[C@@H]3O[C@@H]5CO[C@@H](C)O[C@H]5[C@H](O)[C@H]3O)[C@H]3COC(=O)[C@H]23)OCO4)cc(OC)c1O | HCT-116, Caco-2 over CCD-18Co | cytotoxicity, MTS |  | 72 h | baseline: cancer over non-cancerous cells | selectivity ratio | ~2.5

Some of these lines once more:
SMILES | tested on | assay | system | setting | how to read | quantity | value
O=S(=O)(Nc1ccc(-c2n[nH]c(=S)o2)cc1)c1ccc(C(F)(F)F)cc1 | MCF7 transfected with human P2X7R |  |  | 10 µM, with: Bz-ATP 100 µM | baseline: Bz-ATP alone | inhibition of proliferation | 11%
C/C=C(/C)C(=O)O[C@H]1C(C)=C2C([C@@H]1OC(=O)CCCCCCC)[C@@](C)(OC(C)=O)C[C@H](OC(=O)CCC)[C@@]1(O)[C@H]2OC(=O)[C@@]1(C)O (some centres unmarked) | C127 LDR GFP reporter cells | silenced GFP reporter induction, activator, high-content imaging |  | retest, two-run mean |  | efficacy | 96%
CCN(CC)c1ccc(C=NNC(=O)CSc2nc3ccccc3c(=O)n2Cc2ccc(S(N)(=O)=O)cc2)c(O)c1 | SK-OV-3 | NCI five-dose screen |  |  |  | CC50 | > 100 µM
